Experimental data of several laboratories.
Protocols differ between the studies behind these lines.
Target: Cytochrome P450 3A4 (CYP3A4, Homo sapiens, UniProt P08684)
Chain of UniProt P08684 (whole entry, looked up): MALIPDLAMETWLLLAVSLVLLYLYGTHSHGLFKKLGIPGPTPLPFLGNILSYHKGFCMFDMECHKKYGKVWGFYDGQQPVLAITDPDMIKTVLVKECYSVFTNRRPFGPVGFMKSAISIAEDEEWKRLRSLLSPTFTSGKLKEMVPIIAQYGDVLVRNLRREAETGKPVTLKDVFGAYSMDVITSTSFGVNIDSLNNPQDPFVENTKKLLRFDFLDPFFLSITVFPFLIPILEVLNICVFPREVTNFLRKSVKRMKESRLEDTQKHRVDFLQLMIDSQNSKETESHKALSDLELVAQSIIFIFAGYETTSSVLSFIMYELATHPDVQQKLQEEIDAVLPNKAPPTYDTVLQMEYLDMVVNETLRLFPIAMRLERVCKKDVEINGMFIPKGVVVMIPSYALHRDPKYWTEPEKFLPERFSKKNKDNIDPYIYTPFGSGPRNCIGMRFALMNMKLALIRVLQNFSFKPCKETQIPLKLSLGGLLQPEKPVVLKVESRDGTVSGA

Structure (SMILES) | assay | system | setting | quantity | value
O=C(c1ccc(-c2cccc(C(F)(F)F)c2)cc1)N1CCN(c2ncccn2)CC1 | time-dependent inhibition, inhibitor |  |  | kobs | 0.014 min⁻¹
Cn1cnnc1C1CCN(c2ncccc2-c2cccnc2)CC1 | substrate, refers to: parent compound |  | 1 µM, 1 h | remaining compound | 93%
Cc1[nH]nc2c1N=C(c1ccccc1Cl)c1cnc(N3CCOCC3)cc1N2 | enzyme activity, inhibitor | human liver microsomes | added: testosterone | IC50 | 5.45 µM
C=C(NC(=O)c1csc(-c2nc3c(cc2O)-c2nc(cs2)C(=O)NC(C(C)O)C(=O)NC(=C(C)OC)c2nc(cs2)C(=O)NC2c4nc(cs4)C(=O)NC(COC(=O)c4c5c6c(cccc6n4O)COC(=O)C(OC4CC(C)(O)C(N(C)C)C(C)O4)C2OC5)c2nc-3cs2)n1)C(N)=O (stereo not drawn) | enzyme activity, inhibitor |  | up to 50 µM, pH 7.4 | remaining activity | > 70%
CNC(=O)C1CCCN(C(=O)C2CC3CCC2N3C(=O)[C@@H]2C[C@@H](O)CN2C(=O)NCc2cccc(Cl)c2F)C1 (mixture of isomers) | inhibitor | human liver microsomes |  | IC50 | > 50 µM
N#Cc1cc(NC(=O)C2c3ccccc3C(=O)N(CC(F)(F)F)C2c2cccnc2)ccc1F (racemic) | enzyme activity, inhibitor | liver microsomes | 10 µM | inhibition | 38%
O=C(NS(=O)(=O)c1cccs1)c1cc2ccccc2n1Cc1ccc(Br)c2ccccc12 | inhibitor |  |  | IC50 | > 30 µM
N#Cc1cccc(N2CN(CC(=O)NCC(F)(F)F)C(=O)C23CCN(C(=O)c2cnc4[nH]ncc4c2)CC3)c1 | enzyme activity, inhibitor |  |  | IC50 | > 50 µM
C=CC(=O)Nc1cc(Nc2nccc(-c3cn(C)c4ccccc34)n2)c(OCC(F)(F)F)nc1N(C)CCNC | substrate |  | 3 µM, 60 min, 3A4 isoform, liver abundance-normalized | contribution to metabolite formation | 79.2%
O=C(CN1CN(c2ccccc2)C2(CCN(C(=O)c3ccc4[nH]ncc4n3)CC2)C1=O)NCC(F)(F)F | enzyme activity, inhibitor |  |  | IC50 | > 50 µM
Cc1nc2ccc(S(=O)(=O)n3nc(SCc4ccc(Cl)cc4)nc3N)cc2s1 | enzyme activity, inhibitor |  | 10 µM | inhibition | 89%
O=C(CN1CN(c2cccc(F)c2)C2(CCN(C(=O)c3cnc4[nH]ncc4c3)CC2)C1=O)NCC(F)(F)F | enzyme activity, inhibitor |  |  | IC50 | > 50 µM
COC1C(c2ccc(Cl)c(Cc3ccc(OC4CCOC4)cc3)c2)OC(CO)C(O)C1O (stereo not drawn) | enzyme activity, inhibitor | human, liver microsomes | 10 µM, 10 min | inhibition | < 1%
Nc1nc(SCc2ccc(Cl)cc2)nn1S(=O)(=O)c1ccc2c(c1)CCO2 | enzyme activity, inhibitor |  | 10 µM | inhibition | 91%
O=C(CN1CN(c2ccccc2)C2(CCN(C(=O)c3ccc4[nH]ncc4c3)CC2)C1=O)Nc1ccccn1 | enzyme activity, inhibitor |  |  | IC50 | > 50 µM

Repeated from above:
Structure (SMILES) | assay | system | setting | quantity | value
N#Cc1cccc(N2CN(CC(=O)NCC(F)(F)F)C(=O)C23CCN(C(=O)c2cnc4[nH]ncc4c2)CC3)c1 | enzyme activity, inhibitor |  |  | IC50 | > 50 µM
C=CC(=O)Nc1cc(Nc2nccc(-c3cn(C)c4ccccc34)n2)c(OCC(F)(F)F)nc1N(C)CCNC | substrate |  | 3 µM, 60 min, 3A4 isoform, liver abundance-normalized | contribution to metabolite formation | 79.2%
